Published values gathered from unrelated publications.
Every numbered part comes from another study and shows a few of its results, in no order. Several values in a cell are separate wells, animals, samples, runs or records.

Study 1
Target: RNA binding protein fox-1 homolog 2, RRM domain, GST-SBP tag (RBFOX2, Homo sapiens, UniProt O43251-10, residues 100-194)
Method: RNA Bind-n-Seq
Form: RNA
Matrix: in vitro
Concentration: 365 nM
Notes: natural RNA segment, single round, ends assumed
Reference: no-protein control
Direction: higher = stronger binding
Endpoint: RBNS enrichment (R)
All sequences stand within: GGGAGUUCUACAGUCCGACGAUC … UGGAAUUCUCGGGUGCCAA
Residues (chain): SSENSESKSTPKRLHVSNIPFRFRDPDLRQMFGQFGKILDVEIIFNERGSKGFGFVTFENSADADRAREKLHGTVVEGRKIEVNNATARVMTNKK
GGGGCAGCAGCCUGGCCUGUGCCAUGGUGGGUGUCCUGGGGCCUGUGCGGAGGGAGCCACCUCACCCUGCAGCCCAGUUUGCAGGUGUGGCCUUGUUUCUCCUUGCCCAG: 0.248
UAGACAAACCAGGGCUUUGUAUGCUUGAAGUUCACUGUUUUGUGCCCCCCUUUGAAGAACUUUCUAUGCAGAAAUAGAUGGUCAGGGUUUCGGAUUUGCAGUGAUGUGUC: 1.47
AGCCUCCUGCCUACCCCACUCUCUGCCGCUCGGAGGCCCCAAAGGAAAAAGCACAAGAAGCGUGAGAGAUACCGCCAUUCCUGGAGACAAAGCCCACCUGCUCAUUCUCG: 0.408
UGAAUCAAAAGUUUUAAAAGUAGUUUUAAAAACUUUACACUAUAAUGAUUUAGUUUUGUUAUUGCAUGUCUGUGUUAAGUAUUUUACAUUUGAGAUUGGAAUUAUUAGAC: 11.8
CUGUGGGCAAGGUCGAUGCAAUGCCUGCACUACAGGCCUGUCUUCUGUGGAUCUCUCUCCUUGGCCUUCAGUCCCUGCAGUAUUUUACUGUCAGAUAGCAUGUGGUGCCU: 3.99
GUGCCCCAGACUUUAACUGUGUAAAUAAGAGUGUUUCAUUCAAAUGUUAAUAAACUUUACACAGUAAAUAGACACACUUUCUGCAAUGUACUGACAUGAGUGUCCAAUAU: 0.336
UCUUCAUGUUUCCACUCAUCCUUCCUUUGGACCCAUCGGGGAAAAAGUCUAAAUUGGAGAUCCAGUUUUAGAAGUGCUUUCUGGGAAGCAUUUAAUGGGAUUAGCUGUAG: 0.338
CAGGUGUUCUGCAGGGUCUCUUCACAUGAAGCUGCCAAGCGUGAGUCAGCCCAUAAGCAAAGUCAAAUAACCCACGUGAGGACUGCUUUGUGUGUCUAACUCUCAGUUAU: 0.403
UUAGAGACUCCCCUUGGCUCCCAGUCACCAUAUCCAGUGUUGUGUAAAGAGACUGGCCAACAGGACCAACCAAGCACCUUACCUCUCCCAUACAAGAUGACCCUCUGAGC: 0.335
UUAAGAGACGGGGCAAAUGUGGAUCCAAGAAACCAGGGCCAUGACCGGGUCCACUGUGGAGCAGCCAUCUAUCUACCUGACUCCUGAGCCAGGCUGCCGUGGUGUCAUUU: 0.298

Study 2
Target: Interferon regulatory factor 3, full length, phosphomimetic (IRF3, Homo sapiens, UniProt Q14653, residues 1-427, S386D/S396D/S398D/S402D/T404D/S405D)
Chain of UniProt Q14653 (whole entry, unmodified, looked up): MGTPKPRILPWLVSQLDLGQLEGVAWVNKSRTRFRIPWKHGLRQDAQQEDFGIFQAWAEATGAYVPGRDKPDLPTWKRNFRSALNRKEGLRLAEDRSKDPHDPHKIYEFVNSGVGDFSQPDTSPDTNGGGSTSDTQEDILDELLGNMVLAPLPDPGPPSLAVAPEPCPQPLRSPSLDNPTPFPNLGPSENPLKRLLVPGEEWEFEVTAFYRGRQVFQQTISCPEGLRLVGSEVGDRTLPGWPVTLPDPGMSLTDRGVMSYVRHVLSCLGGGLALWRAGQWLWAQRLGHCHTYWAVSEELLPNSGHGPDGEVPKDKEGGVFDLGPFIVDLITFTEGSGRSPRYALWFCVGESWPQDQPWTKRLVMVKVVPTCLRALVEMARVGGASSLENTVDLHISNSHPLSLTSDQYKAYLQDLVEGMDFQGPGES
Method: protein-binding microarray
Form: double-stranded DNA, one strand shown
Matrix: in vitro
Concentration: 2540 nM top
Notes: 60-bp whole probe
With: salmon DNA 0.4 mg/ml
Reference: random background probes
Direction: higher = stronger binding
Endpoint: fitted relative affinity
All sequences stand within: GCCTAGCAC … GTCTTGATTCGCTTGACGCTGCTG
GCCGGTTTCGGGTTTCGGGACGTGCTA: 6.07 z-score
TTAGGTATAGACTTTCGGTTAGTGCTA: 1.01 z-score
GACTGTATCGGGTTTCGGGACGTGCTA: 2.8 z-score
TTAGATCTCAGTATGGATTAGTGCTAG: 0.21 z-score
GACGATTTCACACTGGAGACGTGCTAG: 1.45 z-score
TTAGGTTTCGACACTGGTTTAGTGCTA: 2.65 z-score
TTAGATCTCAGACTGGACTAGTGCTAG: 0.0203 z-score
GACGGTTTCGGGTAACGGGACGTGCTA: 4.13 z-score

Study 3
Target: Ras GTPase-activating protein-binding protein 1, RRM domain (G3BP1, Homo sapiens, UniProt Q13283)
Chain of UniProt Q13283 (whole entry, looked up): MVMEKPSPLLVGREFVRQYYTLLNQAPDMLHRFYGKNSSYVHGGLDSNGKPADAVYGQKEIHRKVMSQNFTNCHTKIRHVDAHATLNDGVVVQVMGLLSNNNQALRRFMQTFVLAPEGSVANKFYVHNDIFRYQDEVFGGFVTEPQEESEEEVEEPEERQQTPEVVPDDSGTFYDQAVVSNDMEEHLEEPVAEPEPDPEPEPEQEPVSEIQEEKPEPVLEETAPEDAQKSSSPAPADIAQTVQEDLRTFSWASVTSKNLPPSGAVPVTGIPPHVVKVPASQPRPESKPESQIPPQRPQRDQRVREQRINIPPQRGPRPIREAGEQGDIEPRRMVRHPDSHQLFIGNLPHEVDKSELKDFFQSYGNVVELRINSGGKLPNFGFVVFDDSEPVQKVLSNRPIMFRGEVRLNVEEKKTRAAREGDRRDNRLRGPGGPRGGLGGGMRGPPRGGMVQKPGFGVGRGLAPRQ
Method: RNA Bind-n-Seq
Form: RNA
Matrix: in vitro
Concentration: 1 µM
Notes: whole 134-nt RNA, ends assumed
With: 150 mM KCl
Reference: input library
Direction: higher = stronger binding
Endpoint: log2 enrichment
All sequences stand within: GGGAGUUCUACAGUCCGACGAUC … UGGAAUUCUCGGGUGUCAAGG
GCUGUUCUUGCCUUAGCUGCAUCUUGGACCUCAAGACAAGUAGGAGAACGGACGUUGACCGGUACGGUAAUAGACAGUGGAGAUGGUGUC: -0.329
AGUCCUGUGCUACACAUCGUAUGUACCGAAUCGGGAAAAAAAGGGUUUUUGGGAGGGAAAGUAUUAUGUUACGCCGUUCGGAUCUGCACU: 0.585
CUGUGCUACACAUCGUAUGUACCGAAUCGGGGAAAAAAAGGGGAAAAAAAGGGGAAAGGGGAAAGUAUUAUGUUACGCCGUUCGGAUCUG: 0.44
UGGCCCUGGUGGCAUGCGGGGAGGAAGAGGUGGCCUCAUGGAUCGUGGUGGUCCCGGUGGAAUGUUCAGAGGUGGCCGUGGUGGAGACGG: 1.69
UGCUUCAGACCAAGCGGAGCUCCCGGAGGCAAAGCCUGGAGCUGCAGAAGUGUGAAGAGAUCCUCCACAAGAUCGUGAAGUACCGCUUCA: -0.552
UGGGAGGUGGAUUUUGUUGAUUUUUUUAGCUCAUUUCCAGGGGUGGGAAUUUUUUUUUAAUAUGUGUCAUGAAUAAAGUUGUUUUUGAAA: 0.963
CGCUAAAGAGGAGCACGGUGGACUGAUGUGAGCUUCUCUUCCUGCCCCUUCCUCCCUGAUGUCCACUCCCUUCACCUUCCUCACGCCCGU: -0.295
AAGUCCUGUGCUACACAUCGUAUGUACCGAAUCGGUUUUUGGUUUUUUUGGUUUGGAAAGUAUUAUGUUACGCCGUUCGGAUCUGCACUU: -0.247
UCCUCAAGUCCUGUGCUACACAUCGUAUGUACCGAAUCGGGAGGGAGGAGGGAAAGUAUUAUGUUACGCCGUUCGGAUCUGCACUUCCAG: -0.0265
AAGUCCUGUGCUACACAUCGUAUGUACCGAAUCGGUGGAAAAAAAGGUUUUUUUGGAAAGUAUUAUGUUACGCCGUUCGGAUCUGCACUU: -0.331
UGGCCCUGGUGGCAUGCGGGGAGGAAGAGGUAGCCUCAUGGAUCGUGGUGGUCCCGGUGGAAUGUUCAGAGGUGGCCGUGGUGGAGACAG: 0.805

Single results of other studies
PhoQ, residues 284 288 289 292 302 303 TNSAEL — fold induction (PhoP, residues 12 14 15 18 19 LWHSL (Escherichia coli, UniProt P23836); Sort-seq, measured: YFP reporter; E. coli; PhoQ-PhoP variant library, with: 10 µM Mg2+; reference: high Mg2+ state, higher = stronger signaling): 15.1 and 22.9
